Published values pooled from the literature.
A part holds a random share of what one study measured.

Block 1
Target: Ras GTPase-activating protein-binding protein 1, RRM domain (G3BP1, Homo sapiens, UniProt Q13283)
Sequence of UniProt Q13283 (whole entry, looked up): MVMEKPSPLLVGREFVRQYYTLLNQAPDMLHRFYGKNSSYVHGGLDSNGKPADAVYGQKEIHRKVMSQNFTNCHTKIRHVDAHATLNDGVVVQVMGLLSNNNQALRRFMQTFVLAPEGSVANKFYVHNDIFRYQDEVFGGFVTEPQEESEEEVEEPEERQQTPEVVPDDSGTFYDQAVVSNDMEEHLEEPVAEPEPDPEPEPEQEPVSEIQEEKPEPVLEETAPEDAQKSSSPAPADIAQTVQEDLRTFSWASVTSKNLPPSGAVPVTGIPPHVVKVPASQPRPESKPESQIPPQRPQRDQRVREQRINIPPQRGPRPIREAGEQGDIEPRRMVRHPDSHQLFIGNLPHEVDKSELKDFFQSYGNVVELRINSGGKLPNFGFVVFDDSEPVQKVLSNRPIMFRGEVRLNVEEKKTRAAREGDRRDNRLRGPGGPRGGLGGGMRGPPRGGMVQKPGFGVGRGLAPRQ
Technique: RNA Bind-n-Seq
Molecule type: RNA
Medium: in vitro
Concentration: 1 µM
Notes: whole 134-nt RNA, ends assumed
With: 150 mM KCl
Baseline: input library
Reading: higher = stronger binding
| Strand | log2 enrichment |
| --- | --- |
| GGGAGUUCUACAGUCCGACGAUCUGGGAGGUGGAUUUUGUUUAUUUUUUUAGCUCAUUUCCAGGGGUGGGAAUUUUUUUUUAAUAUGUGUCAUGAAUAUAGUUGUUUUUGAAAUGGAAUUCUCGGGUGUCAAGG | 1.64 |
| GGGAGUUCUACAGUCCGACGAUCAAGUCCUGUGCUACACAUCGUAUGUACCGAAUCGGGUUUGGGAAAAAAAGGGUGGGAAAGUAUUAUGUUACGCCGUUCGGAUCUGCACUUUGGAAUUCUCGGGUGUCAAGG | 0.608 |
| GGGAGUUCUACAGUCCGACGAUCUGGCCCUGGUGGCAUGCGGGGAGGAAGAGGUGGCCUCAUGGAUCGUGGUAGUCCCGGUGGAAUGUUCAGAGGUGGCCGUGGUGGAGACAGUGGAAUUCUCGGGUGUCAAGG | 1.12 |
| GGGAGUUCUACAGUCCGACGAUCUUGAGAAAAGCACCCAUAAUUUGCUACUUGAGGAUUUUAUUCCCUGGAUUCUCUGGAUGCUCAUUGCAUGAAAAGUGGAAAAGUUUAGAUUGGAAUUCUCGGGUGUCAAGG | -0.173 |
| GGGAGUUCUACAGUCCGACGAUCCCUGUGCUACACAUCGUAUGUACCGAAUCGGGGUUUUUUGGGUUUUUUGGGGUUUUUUGGGAAAGUAUUAUGUUACGCCGUUCGGAUCUGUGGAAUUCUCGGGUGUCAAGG | -0.221 |
| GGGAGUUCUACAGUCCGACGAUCACCAUGCAGGUGGGCAUCUUUGGGAAGUGGGGCAAGGGGGGGAUAGGGAGGGGGGUAACACUUUGGAAACAGGUGGUCCCAGGUCGUUUCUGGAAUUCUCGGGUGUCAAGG | -0.399 |
| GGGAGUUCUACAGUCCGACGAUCCAAGUCCUGUGCUACACAUCGUAUGUACCGAAUCGGGGAAGGGAAGGGGAAGGGGAAAGUAUUAUGUUACGCCGUUCGGAUCUGCACUUCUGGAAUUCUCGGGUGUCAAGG | 1.21 |
| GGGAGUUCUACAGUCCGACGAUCUGGCCCUGGUGGCAUGCGGGGAGGAAGAGGUGGCCUCAUGGCUCGUGGUGGUCCCGGUGGAAUGUUCAGAGGUGGCCGUGGUGGAGACAGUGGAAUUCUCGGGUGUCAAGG | 0.278 |
| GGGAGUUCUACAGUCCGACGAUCUGGCCCUGGUGGCAUGCGGGGAGGAAGAGCUGGCCUCAUGGAUCGUGGUGGUCCCGGUGGAAUGUUCAGAGGUGGCCGUGGUGGAGACAGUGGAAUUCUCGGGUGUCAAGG | 0.966 |
| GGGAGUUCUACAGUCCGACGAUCCAAGUCCUGUGCUACACAUCGUAUGUACCGAAUCGGUUUUGGGUUUUGGGUUUUGGAAAGUAUUAUGUUACGCCGUUCGGAUCUGCACUUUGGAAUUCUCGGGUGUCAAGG | -0.315 |
| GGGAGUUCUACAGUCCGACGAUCAAGUCCUGUGCUACACAUCGUAUGUACCGAAUCGGGUUUGGGAAAAAAAGGGAGGGAAAGUAUUAUGUUACGCCGUUCGGAUCUGCACUUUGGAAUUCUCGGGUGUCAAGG | 0.778 |
| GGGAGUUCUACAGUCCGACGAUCCACAGACAACACGCACCCACACAGACACAGAGGGAAGGGGUUGGGAUGGGGACAGGGUGCACAGCAGGGCGGGGUAGGACCCAAGCCCCUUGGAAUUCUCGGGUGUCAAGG | -0.412 |
| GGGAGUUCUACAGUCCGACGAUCUUCCUCAAGUCCUGUGCUACACAUCGUAUGUACCGAAUCGGUGGAGGUGGAAAGUAUUAUGUUACGCCGUUCGGAUCUGCACUUCCAGCAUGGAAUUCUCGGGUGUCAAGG | -0.274 |
| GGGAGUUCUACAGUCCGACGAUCUGGCCCUGGUGGCAUGCGGGGAGGAAGAGGUGGCCUCAUGGAUCGUCGUGGUCCCGGUGGAAUGUUCAGAGGUGGCCGUGGUGGAGACAGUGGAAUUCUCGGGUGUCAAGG | 0.782 |

Block 2
Target: Histone acetyltransferase KAT6A, winged helix 2, GST fusion (KAT6A, Homo sapiens, UniProt Q92794, residues 85-181)
Technique: protein binding microarray
Molecule type: double-stranded DNA, one strand shown
Medium: in vitro
Concentration: not given
Notes: 8-mer, flanks averaged, mean of 2 arrays, mostly near background
Baseline: not given
Reading: higher = stronger binding
Residues (chain): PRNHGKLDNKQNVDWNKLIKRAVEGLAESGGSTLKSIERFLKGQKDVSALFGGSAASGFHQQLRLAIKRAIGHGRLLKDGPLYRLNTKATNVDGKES
| Strand | E-score |
| --- | --- |
| ATTCAAAA | 0.26 |
| CGCATGGC | 0.229 |
| ACATTCGG | -0.0679 |
| ACCCCGCA | 0.0563 |
| CGCCCGCC | 0.225 |
| CTACGCTC | -0.116 |
| AGGGCAGA | -0.0378 |
| AGTCTGAT | -0.0808 |
| CTTGCTTC | 0.0723 |
| CGGTTATA | -0.154 |
| AGAAACGC | 0.0643 |
| CCGGGGCC | 0.148 |
| CAGAACCG | 0.00867 |
| CACTGACC | 0.129 |
| AATTTTTA | 0.0497 |
| GTACTCGA | -0.156 |
| ACTCATGC | -0.205 |

Block 3
Target: Interferon regulatory factor 5, full length, phosphomimetic (IRF5, Homo sapiens, UniProt Q13568-2, residues 1-514, K96S/S451D/S453D/S456D/S462D)
Technique: protein-binding microarray
Molecule type: double-stranded DNA, one strand shown
Medium: in vitro
Concentration: 250 nM
Notes: 60-bp whole probe
With: salmon DNA 0.4 mg/ml
Baseline: random background probes
Reading: higher = stronger binding
Constant ends, left off below: GCCTAGCAC … GTCTTGATTCGCTTGACGCTGCTG
| Strand | log fluorescence [z-score] |
| --- | --- |
| GTACCACTCCAGTTCTGGGAGTGCTAG | 0.0367 |
| GACGGTATCCTACTTCTGACGTGCTAG | -0.19 |
| GACGGACTGGTTATCGGGACGTGCTAG | 0.201 |
| TAAGAACTGAGTATCGATTAGTGCTAG | 7.1 |
| TCATTTAGAAATTTCTTACTGTGCTAG | 1.02 |
| TCATCTTCCTTCATGGCACTGTGCTAG | 0.565 |
| TTAGATTTCAGTTCTGATTAGTGCTAG | 1.81 |
| GACGATATCAGGTTCGAGACGTGCTAG | 0.631 |
| TTAGGTTTCCCACTGCTTTAGTGCTAG | 0.381 |
| GACGGTCTTGGTCTCGGGACGTGCTAG | -0.211 |
| CTAGGTATCGACACTGGGTTAGTGCTA | 1.82 |
| TCATTATTCTAGCCTCCAACTGTGCTA | 0.616 |
| GACGTTATCAGACTGGAGACGTGCTAG | 0.0763 |
| TTTTCACTTTCTTTAACATAGTGCTAG | 6.19 |
| ATAGGTTCCGGTTTCGGTTAGTGCTAG | 9.15 |
| GACGGTCTCGGTAGCGGGACGTGCTAG | -0.0366 |
| TTAGGTATCCTACTGATTTAGTGCTAG | -0.0266 |
| GACGTACTGGGGTATCGGGACGTGCTA | 0.0441 |
| TCAGCTCTAGGTTCTCTGAAGGTGCTA | -0.438 |
| ACCATTTTGTTTTTCATTATGTGCTAG | 1.68 |
| GACGTTTTCAGTCTCGAGACGTGCTAG | 2.28 |
| TTAGGTATCCAACTGCTTTAGTGCTAG | 0.0961 |
| GACGTTATCGGACTGGGGACGTGCTAG | 0.75 |
| TCATTCCTCTTTTTTGTACTGTGCTAG | 1.12 |
| TTAGGTATCGACTAGCGGTTAGTGCTA | 3.76 |

Block 4
Target: Centromere-binding protein 1, full length, N-terminal tag (CBF1, Saccharomyces cerevisiae, UniProt P17106, residues 1-351)
Sequence of UniProt P17106 (whole entry, looked up): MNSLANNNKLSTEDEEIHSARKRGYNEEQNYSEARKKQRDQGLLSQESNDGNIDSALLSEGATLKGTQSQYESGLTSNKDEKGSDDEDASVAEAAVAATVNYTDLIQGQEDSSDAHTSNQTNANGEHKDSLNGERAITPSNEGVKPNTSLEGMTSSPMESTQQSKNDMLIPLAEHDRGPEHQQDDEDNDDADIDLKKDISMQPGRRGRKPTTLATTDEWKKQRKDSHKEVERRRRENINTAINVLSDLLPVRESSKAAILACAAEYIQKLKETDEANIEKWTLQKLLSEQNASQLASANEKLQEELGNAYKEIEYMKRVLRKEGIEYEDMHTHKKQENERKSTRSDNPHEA
Technique: protein-binding microarray
Molecule type: double-stranded DNA, one strand shown
Medium: in vitro
Concentration: 0.8 µM
Notes: whole 60-bp probe, no competitor
Reading: higher = stronger binding
| Strand | fluorescence intensity |
| --- | --- |
| CTATCTCCCCCCTTCCTCGTGCTGCGCGACTGTTTCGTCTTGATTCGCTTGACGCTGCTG | 575 a.u. |
| CTATCACTATGCGGTGTGATGATGTGCTATACCTTCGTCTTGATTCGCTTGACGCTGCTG | 558 a.u. |
| CTATGGCAATAGCTTTTCGTGACTTGTTTTAAATTCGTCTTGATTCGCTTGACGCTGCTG | 574 a.u. |
| CCTAACTACTATAAATACATCAGATAGCTTCGTACAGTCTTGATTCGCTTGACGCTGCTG | 509 a.u. |
| CTACCATTTGCCTGTCTGATGATATTCTTGATTTTCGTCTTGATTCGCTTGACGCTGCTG | 521 a.u. |
| GAAGCAGTTAATCTAAACCTGATGCCCACAAAGTAGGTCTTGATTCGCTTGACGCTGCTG | 550 a.u. |
| CTAGGTGGCGAAACAAAGGTGATGAAAGTTTCTTTCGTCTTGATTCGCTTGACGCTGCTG | 476 a.u. |
| GAAACAATATCGCGCTACGTGCGTTTTTTGGTCTAGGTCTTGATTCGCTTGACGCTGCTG | 834 a.u. |
| GAACGGGAATTACAGCTCGTGTTGAGTGATGATTAGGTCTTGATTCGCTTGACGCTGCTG | 582 a.u. |
| CTATCTATTTTGATGAACATCAGGAATTGAAACTTCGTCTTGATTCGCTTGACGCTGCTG | 571 a.u. |
| GAAAAAACATTATTTCATGACACTGTTCCTAGATAGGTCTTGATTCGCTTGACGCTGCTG | 533 a.u. |
| GAAGTCACCTCGTGTGTCGTGATAAATAATCAATAGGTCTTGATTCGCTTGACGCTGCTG | 1090 a.u. |
| GAACTTAATCACTCCGGCGTGGGGAAAGAAAGCTAGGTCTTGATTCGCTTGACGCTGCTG | 522 a.u. |
| CTAAGCTGTTGTTTTCTGATGTCAATAACAGGGTTCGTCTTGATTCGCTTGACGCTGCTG | 558 a.u. |
| CTAAAACTATGTATACGTGTGTGTGTGTGTGTGTTCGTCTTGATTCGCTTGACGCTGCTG | 605 a.u. |
| GAAATCGTTCAACACCACCTTATTTTCTAACTATAGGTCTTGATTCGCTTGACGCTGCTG | 543 a.u. |
| CTATTTGATGAAAATCACGATAGTTAATTTTTCTTCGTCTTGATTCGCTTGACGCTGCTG | 567 a.u. |
| GAAAAACATGCTCATATGATTATCATGAAAGCATAGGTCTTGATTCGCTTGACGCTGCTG | 597 a.u. |
| CTAATTCTCCGCGGAAACATGACAAACTTTTAGTTCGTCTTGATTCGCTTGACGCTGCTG | 526 a.u. |
| TGTACGAAGCTATATCACGAAATTATAGTAGTTAGGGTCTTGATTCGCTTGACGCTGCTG | 546 a.u. |
| CTAAATGACTGGGAGCACGGGACCTTTGAAATTTTCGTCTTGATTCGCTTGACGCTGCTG | 1630 a.u. |
| CTATTCGGATGATCTGCCGTGACAGGTGGTTCGTTCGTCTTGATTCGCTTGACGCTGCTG | 690 a.u. |
| CTAATTTTAGTTAAGCACATGCATACATAAATTTTCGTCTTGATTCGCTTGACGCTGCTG | 968 a.u. |
| CTAAAATAAAATGCGCACGAGTAGTTCTAACGCTTCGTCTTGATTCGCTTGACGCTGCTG | 606 a.u. |
| CTATTCCTAGGGTGTCATGTGTCTGGCCCAATTTTCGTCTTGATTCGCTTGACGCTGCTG | 1080 a.u. |

Block 5
Target: Sal-like protein 4, full length isoform A (SALL4, Homo sapiens, UniProt Q9UJQ4, residues 1-1053)
Sequence of UniProt Q9UJQ4 (whole entry, looked up): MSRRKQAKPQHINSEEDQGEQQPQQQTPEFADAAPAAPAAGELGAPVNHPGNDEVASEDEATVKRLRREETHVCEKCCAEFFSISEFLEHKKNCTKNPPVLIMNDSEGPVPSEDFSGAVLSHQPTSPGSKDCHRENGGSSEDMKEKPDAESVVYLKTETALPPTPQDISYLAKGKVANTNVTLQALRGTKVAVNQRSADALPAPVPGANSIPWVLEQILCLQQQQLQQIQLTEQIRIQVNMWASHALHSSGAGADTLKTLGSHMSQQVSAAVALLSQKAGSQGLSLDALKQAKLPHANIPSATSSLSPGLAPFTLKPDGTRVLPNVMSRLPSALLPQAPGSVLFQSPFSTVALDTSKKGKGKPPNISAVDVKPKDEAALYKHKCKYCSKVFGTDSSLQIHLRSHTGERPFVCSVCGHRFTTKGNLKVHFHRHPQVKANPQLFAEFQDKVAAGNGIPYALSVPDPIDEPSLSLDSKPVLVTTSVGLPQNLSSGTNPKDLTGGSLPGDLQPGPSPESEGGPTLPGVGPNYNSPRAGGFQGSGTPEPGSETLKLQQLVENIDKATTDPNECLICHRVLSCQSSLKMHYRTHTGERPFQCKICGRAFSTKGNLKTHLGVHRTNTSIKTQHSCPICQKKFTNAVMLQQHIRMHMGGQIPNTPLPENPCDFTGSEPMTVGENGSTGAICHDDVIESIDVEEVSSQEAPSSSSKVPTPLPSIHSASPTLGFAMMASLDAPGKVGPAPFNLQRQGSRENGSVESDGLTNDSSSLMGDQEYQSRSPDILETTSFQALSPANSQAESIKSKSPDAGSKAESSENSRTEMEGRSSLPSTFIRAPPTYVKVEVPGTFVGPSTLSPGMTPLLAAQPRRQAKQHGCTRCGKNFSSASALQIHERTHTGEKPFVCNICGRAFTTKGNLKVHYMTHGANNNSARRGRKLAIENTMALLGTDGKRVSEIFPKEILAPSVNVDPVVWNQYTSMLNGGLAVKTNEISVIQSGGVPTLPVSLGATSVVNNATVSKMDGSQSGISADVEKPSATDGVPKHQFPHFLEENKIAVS
Technique: universal PBM
Molecule type: double-stranded DNA, one strand shown
Medium: in vitro
Concentration: 600 nM
Notes: 8-mer, flanks averaged, mean of replicates
Reading: higher = stronger binding
| Strand | E-score |
| --- | --- |
| CGCCGCAC | -0.256 |
| CCACGTAC | -0.105 |
| GCCAAGGC | -0.365 |
| TAGGACGA | -0.0291 |
| AAGATTGG | 0.155 |
| ACGCCCCC | -0.308 |
| ATTCCACC | 0.0319 |
| CTTATGCA | 0.231 |
| ACTCCACG | -0.175 |
| CAAGTGAA | 0.131 |
| AGCGGTAC | -0.159 |
| ACGACCCT | -0.25 |
| ATATTGAT | 0.396 |
| CGTTTTAA | 0.169 |
| GAACATGA | 0.034 |
| AAGGATAT | 0.218 |
| AAGTAGCT | 0.0314 |
| AGTATACT | 0.184 |
| ATAAGGAA | 0.131 |
| CCGCAATA | 0.0746 |
| CGCCCCTA | -0.202 |
| CGCCGACG | -0.292 |
| CCCGTAGC | -0.332 |
| GCGGCAGC | -0.301 |
| GTAACCGA | -0.0782 |
